Assay results collected from several papers.
Each numbered part is a random draw from the data of one study; scales do not carry over between parts.
Chain of UniProt Q9H4B4 (whole entry, looked up): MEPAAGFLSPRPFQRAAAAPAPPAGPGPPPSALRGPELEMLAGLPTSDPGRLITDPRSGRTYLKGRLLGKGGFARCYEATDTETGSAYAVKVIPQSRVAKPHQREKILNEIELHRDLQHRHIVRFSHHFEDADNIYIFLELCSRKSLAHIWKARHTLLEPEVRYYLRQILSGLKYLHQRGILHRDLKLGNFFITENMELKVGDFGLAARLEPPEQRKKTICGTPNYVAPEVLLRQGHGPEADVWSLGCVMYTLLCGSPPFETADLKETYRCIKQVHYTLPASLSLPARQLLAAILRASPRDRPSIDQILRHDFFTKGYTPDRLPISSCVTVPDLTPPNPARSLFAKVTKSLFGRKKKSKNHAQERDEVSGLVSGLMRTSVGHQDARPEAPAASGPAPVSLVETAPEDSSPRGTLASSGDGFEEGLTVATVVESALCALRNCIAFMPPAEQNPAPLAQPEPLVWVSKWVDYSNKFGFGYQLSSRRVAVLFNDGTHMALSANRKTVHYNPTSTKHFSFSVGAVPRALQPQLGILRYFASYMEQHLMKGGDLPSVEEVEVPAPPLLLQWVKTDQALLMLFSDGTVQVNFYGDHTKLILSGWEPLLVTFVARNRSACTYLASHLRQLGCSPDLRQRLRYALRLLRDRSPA
Chain of UniProt Q9HAZ1 (whole entry, looked up): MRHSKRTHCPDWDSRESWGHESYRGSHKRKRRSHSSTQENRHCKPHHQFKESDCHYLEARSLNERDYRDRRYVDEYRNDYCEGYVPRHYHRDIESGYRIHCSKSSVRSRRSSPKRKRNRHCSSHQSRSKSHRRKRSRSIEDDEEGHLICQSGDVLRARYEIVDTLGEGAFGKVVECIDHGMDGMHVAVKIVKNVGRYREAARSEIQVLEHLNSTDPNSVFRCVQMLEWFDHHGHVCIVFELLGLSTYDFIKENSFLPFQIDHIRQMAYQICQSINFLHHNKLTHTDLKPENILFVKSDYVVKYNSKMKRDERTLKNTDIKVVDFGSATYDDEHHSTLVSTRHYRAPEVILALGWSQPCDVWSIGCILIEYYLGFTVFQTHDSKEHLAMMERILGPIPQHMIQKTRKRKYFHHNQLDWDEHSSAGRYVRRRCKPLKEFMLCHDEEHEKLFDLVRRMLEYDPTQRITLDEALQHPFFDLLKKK
Chain of UniProt Q02750 (whole entry, looked up): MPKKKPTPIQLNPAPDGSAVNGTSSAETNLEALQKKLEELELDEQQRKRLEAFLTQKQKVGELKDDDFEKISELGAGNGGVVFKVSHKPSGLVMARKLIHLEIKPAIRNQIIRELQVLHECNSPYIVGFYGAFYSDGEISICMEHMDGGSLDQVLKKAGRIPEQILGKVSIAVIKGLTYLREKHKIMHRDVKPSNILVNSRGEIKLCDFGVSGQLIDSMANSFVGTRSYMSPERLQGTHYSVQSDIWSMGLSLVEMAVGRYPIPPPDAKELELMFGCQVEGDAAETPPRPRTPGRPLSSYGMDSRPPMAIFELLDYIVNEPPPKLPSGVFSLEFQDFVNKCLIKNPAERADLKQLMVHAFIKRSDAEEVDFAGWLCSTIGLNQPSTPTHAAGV
Chain of UniProt O75676 (whole entry, looked up): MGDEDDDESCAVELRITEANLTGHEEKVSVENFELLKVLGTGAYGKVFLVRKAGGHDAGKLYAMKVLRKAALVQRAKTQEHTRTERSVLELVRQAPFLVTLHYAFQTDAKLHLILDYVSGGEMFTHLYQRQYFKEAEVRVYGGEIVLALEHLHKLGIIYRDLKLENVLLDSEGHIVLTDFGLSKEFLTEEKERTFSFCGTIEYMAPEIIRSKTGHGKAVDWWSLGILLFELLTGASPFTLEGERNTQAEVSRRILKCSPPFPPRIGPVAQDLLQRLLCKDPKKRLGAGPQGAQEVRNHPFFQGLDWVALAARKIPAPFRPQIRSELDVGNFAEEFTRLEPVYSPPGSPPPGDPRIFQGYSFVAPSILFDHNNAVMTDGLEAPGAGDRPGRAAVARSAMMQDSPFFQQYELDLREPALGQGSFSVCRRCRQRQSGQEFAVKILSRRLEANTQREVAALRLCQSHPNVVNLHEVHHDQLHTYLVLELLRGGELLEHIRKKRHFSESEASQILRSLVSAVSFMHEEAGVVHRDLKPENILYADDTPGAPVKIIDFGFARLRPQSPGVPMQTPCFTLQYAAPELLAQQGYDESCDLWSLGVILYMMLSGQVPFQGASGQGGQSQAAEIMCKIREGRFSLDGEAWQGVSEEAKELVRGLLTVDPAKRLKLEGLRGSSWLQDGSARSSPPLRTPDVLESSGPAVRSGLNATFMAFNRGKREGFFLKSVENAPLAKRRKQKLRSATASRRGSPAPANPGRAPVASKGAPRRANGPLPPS
Chain of UniProt O14920 (whole entry, looked up): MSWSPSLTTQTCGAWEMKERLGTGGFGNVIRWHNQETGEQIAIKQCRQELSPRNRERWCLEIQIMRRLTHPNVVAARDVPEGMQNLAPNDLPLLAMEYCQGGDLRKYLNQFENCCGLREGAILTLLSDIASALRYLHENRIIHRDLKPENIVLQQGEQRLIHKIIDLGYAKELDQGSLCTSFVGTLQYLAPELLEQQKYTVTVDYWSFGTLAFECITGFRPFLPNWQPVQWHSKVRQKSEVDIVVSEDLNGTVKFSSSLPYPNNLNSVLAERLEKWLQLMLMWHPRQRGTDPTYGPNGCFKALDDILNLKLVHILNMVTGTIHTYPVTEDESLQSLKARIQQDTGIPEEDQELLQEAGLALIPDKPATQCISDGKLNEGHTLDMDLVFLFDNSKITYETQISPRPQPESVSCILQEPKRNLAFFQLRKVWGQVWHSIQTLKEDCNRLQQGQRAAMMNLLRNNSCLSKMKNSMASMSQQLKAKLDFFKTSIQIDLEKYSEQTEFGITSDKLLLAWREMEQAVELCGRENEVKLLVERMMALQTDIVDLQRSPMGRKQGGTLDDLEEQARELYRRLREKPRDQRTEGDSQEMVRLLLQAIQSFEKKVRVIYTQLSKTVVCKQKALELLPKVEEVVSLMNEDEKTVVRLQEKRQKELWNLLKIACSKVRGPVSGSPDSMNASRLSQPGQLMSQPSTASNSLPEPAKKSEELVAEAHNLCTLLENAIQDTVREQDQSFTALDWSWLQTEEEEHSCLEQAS
Chain of UniProt Q8N4C8 (whole entry, looked up): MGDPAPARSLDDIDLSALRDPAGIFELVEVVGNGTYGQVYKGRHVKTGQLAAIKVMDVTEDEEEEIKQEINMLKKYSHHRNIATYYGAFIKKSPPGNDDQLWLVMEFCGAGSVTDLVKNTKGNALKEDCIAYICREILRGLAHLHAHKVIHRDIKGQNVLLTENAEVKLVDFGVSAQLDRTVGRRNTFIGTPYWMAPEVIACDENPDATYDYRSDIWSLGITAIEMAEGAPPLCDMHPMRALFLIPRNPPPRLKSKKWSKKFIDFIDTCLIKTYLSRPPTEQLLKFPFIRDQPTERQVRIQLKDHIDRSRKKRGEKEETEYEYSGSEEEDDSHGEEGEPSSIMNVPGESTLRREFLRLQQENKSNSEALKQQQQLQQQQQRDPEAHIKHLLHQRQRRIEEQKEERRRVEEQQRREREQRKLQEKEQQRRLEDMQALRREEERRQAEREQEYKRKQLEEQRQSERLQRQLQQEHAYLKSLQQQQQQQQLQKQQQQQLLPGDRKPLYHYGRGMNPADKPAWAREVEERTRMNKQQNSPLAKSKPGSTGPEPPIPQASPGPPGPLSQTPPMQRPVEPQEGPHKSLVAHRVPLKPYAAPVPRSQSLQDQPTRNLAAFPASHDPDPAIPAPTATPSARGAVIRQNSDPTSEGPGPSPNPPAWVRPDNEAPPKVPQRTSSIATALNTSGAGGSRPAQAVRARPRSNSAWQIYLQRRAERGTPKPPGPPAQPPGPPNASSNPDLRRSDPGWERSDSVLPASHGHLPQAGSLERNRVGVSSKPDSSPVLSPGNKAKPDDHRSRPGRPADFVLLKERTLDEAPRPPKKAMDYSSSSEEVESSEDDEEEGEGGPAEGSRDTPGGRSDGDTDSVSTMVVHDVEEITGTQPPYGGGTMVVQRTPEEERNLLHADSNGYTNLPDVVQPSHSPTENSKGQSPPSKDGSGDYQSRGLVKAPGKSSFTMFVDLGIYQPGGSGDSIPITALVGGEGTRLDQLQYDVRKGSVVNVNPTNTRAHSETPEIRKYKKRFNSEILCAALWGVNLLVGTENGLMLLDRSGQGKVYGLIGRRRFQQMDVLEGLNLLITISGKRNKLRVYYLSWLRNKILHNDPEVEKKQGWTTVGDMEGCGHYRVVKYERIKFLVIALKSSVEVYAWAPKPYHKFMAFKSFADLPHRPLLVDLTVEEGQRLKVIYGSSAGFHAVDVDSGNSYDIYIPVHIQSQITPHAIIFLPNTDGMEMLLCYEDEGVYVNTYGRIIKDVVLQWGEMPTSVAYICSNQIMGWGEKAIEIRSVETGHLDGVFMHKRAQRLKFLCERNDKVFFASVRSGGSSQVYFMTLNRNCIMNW

Sample 1
Target: Calcium/calmodulin-dependent protein kinase type II subunit alpha (CAMK2A, Homo sapiens, UniProt Q9UQM7)
Chain of UniProt Q9UQM7 (whole entry, looked up): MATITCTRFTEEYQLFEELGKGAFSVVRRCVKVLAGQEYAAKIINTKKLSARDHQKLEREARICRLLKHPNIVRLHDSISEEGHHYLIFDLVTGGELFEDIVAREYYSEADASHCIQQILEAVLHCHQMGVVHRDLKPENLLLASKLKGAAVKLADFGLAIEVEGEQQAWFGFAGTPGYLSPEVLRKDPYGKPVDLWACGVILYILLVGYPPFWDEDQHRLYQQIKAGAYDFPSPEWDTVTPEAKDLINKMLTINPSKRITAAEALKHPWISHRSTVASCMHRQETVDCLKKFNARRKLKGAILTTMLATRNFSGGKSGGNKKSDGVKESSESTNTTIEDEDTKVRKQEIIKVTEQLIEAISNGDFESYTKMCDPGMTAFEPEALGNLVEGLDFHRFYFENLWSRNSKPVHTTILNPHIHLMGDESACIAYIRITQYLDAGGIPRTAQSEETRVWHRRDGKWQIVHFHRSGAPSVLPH
Observed: enzyme activity
Mode: inhibitor
Concentration: 10 µM
Structure (SMILES) | inhibition [%]
C[C@@]12C[C@@]3(O)O[C@@H](O1)[C@]1(COC(=O)c4ccccc4)[C@H]3C[C@@]12O[C@@H]1O[C@H](CO)[C@@H](O)[C@H](O)[C@H]1O | -6
O=C(O)C1=CCCNC1 | 1
O=C(O)c1c(O)cccc1O | 4
COc1ccc2c(c1OC)O[C@H]1c3ccc(O)cc3OC[C@@H]21 | -13
COc1ccc(/C=C/C(=O)c2ccc(OC)c3c2OC(C)(C)C=C3)cc1 | -2
C=C1C(=O)O[C@H]2C[C@@H](C)[C@@H]3[C@@H](OC(C)=O)C[C@H](O)[C@@]3(C)[C@@H](OC(C)=O)[C@H]12 | -14
O=c1ccn([C@@H]2O[C@H](CO)[C@@H](O)[C@H]2O)c(=O)[nH]1 | 12
O=C(O)CCCCCCCCCC(=O)O | -23

Sample 2
SMILES: CCCCc1c(-c2ccc(OC)cc2)[nH]c2nccnc12
Observed: enzyme activity
Mode: inhibitor
Concentration: 0.5 µM
Reference: control
target | remaining activity [%]
Serine/threonine-protein kinase PLK3 (PLK3, Homo sapiens, UniProt Q9H4B4) | 91.5
cGMP-dependent protein kinase 2 (PRKG2, Homo sapiens, UniProt Q13237) | 93.9
Serine/threonine-protein kinase DCLK2 (DCLK2, Homo sapiens, UniProt Q8N568) | 101
Dual specificity protein kinase CLK4 (CLK4, Homo sapiens, UniProt Q9HAZ1) | 73.2
Serine/threonine-protein kinase Nek3 (NEK3, Homo sapiens, UniProt P51956) | 99.1
Dual specificity protein kinase CLK3 (CLK3, Homo sapiens, UniProt P49761) | 116
Dual specificity mitogen-activated protein kinase kinase 1 (MAP2K1, Homo sapiens, UniProt Q02750) | 88.7
Misshapen-like kinase 1 (MINK1, Homo sapiens, UniProt Q8N4C8) | 84.4
Calcium/calmodulin-dependent protein kinase type IV (CAMK4, Homo sapiens, UniProt Q16566) | 97.6
Ribosomal protein S6 kinase alpha-4 (RPS6KA4, Homo sapiens, UniProt O75676) | 89.4
Hepatocyte growth factor receptor (MET, Homo sapiens, UniProt P08581) | 86.8
Serine/threonine-protein kinase MARK2 (MARK2, Homo sapiens, UniProt Q7KZI7) | 83.1
Vascular endothelial growth factor receptor 2 (KDR, Homo sapiens, UniProt P35968) | 88.8

Sample 3
SMILES: CC(C)n1cnc(-c2ccc(F)cc2)c1-c1ncc(C(=O)Nc2ccc(N3CCN(C)CC3)cc2)[nH]1
Host: idiopathic pulmonary fibrosis patients
Matrix: plasma
conditions | AUC(0-t)
oral, 60 mg once daily, week 12, arithmetic mean | 3450 ng·h/mL
oral, 30 mg once daily, week 0, median | 527 ng·h/mL
30 mg twice daily, week 0, median | 274 ng·h/mL

Sample 4
Structure (SMILES): O=C(O)[C@@H]1[C@@H](Cn2nnc3ccccc3c2=O)CC[C@H]1C(=O)c1ccc(OCCC2CCOCC2)cc1
Observed: cell-free assay
Method: competition with immobilised ligand
Concentration: 1 µM
target | remaining binding [%]
Cyclin-dependent kinase 5 (CDK5, Homo sapiens, UniProt Q00535) | 81
Inhibitor of nuclear factor kappa-B kinase subunit beta (IKBKB, Homo sapiens, UniProt O14920) | 100
Dual specificity protein kinase CLK2 (CLK2, Homo sapiens, UniProt P49760) | 100
Homeodomain-interacting protein kinase 3 (HIPK3, Homo sapiens, UniProt Q9H422) | 100
Macrophage colony-stimulating factor 1 receptor (CSF1R, Homo sapiens, UniProt P07333) | 100
Mitogen-activated protein kinase kinase kinase 3 (MAP3K3, Homo sapiens, UniProt Q99759) | 100

For quick reference, copied from above (sample 2):
target | remaining activity [%]
Calcium/calmodulin-dependent protein kinase type IV (CAMK4, Homo sapiens, UniProt Q16566) | 97.6
Misshapen-like kinase 1 (MINK1, Homo sapiens, UniProt Q8N4C8) | 84.4
Dual specificity protein kinase CLK4 (CLK4, Homo sapiens, UniProt Q9HAZ1) | 73.2
Serine/threonine-protein kinase MARK2 (MARK2, Homo sapiens, UniProt Q7KZI7) | 83.1
Serine/threonine-protein kinase Nek3 (NEK3, Homo sapiens, UniProt P51956) | 99.1
